Results of several laboratories.
Numbers after ± are the reported error.

Structure (SMILES) = Clc1ccc(-c2ccccc2)cc1; system = Sprague-Dawley rats, female, serum; setting = inhalation, 23 µg/rat, 1 h after exposure; measurement = phosphorus; value = 12 ± 2 mg/dL
Structure (SMILES) = CC(C)[C@@H]1NC(=O)CNC(=O)[C@H](CC(N)=O)NC(=O)[C@H](CCCNC(=N)N)NC(=O)[C@H](Cc2ccc(O)cc2)NC(=O)[C@H](C(C)C)NC(=O)[C@@H](NC(=O)[C@@H](NC(=O)[C@H](CC(N)=O)NC(=O)[C@H](Cc2c[nH]c3ccccc23)NC(=O)[C@H](C)NC(=O)[C@H](Cc2ccccc2)NC(=O)CN)C(C)C)CSSC[C@@H](C(=O)N[C@@H](Cc2cnc[nH]2)C(=O)N[C@@H](CCCNC(=N)N)C(=O)N[C@@H](CCCNC(=N)N)C(=O)N[C@@H](C)C(=O)N[C@@H](CC(N)=O)C(N)=O)NC(=O)[C@H](C(C)C)NC(=O)[C@H](CCCNC(=N)N)NC1=O; system = ICR mouse, serum; setting = ip, 5 mg/kg, 3 d dosing, blood day 5; measurement = total protein; value = 53.6 ± 0.98 g/L
Structure (SMILES) = O=C(O)CCCOc1ccc(F)cc1-c1cc(-c2ccccc2C(F)(F)F)n(-c2ccccc2)n1; assay = measured: adrenals; system = Crl:CD(SD) rats, male; setting = iv, 25 µg/kg, 14 days; measurement = organ weight; value = 70 ± 10.9 mg
Structure (SMILES) = C[C@]1(CO)Cc2ncn(-c3ccc(C#N)c(Cl)c3)c2C(=O)O1; system = human; setting = all doses, European multiple ascending dose; measurement = drug-related abnormal skin odour; value = 2.2%
Structure (SMILES) = CC(C)(O)c1cc(Nc2cc(Oc3cn(C4CC4)nc3C3CCOCC3)ccn2)ccn1; system = grade 4 glioma expansion cohort; setting = oral, 50 mg twice daily; measurement = AST increased, grade ≥3; value = 0%
Structure (SMILES) = O=c1ccc2ccc3occc3c2o1; assay = post-procedure stability; system = rat plasma; setting = 8 ng/mL, 1 h, room temperature; measurement = accuracy; value = 91.5%
Structure (SMILES) = C=CCNc1c(O)cc2c(O)c1C[C@@H](C)C[C@H](OC)[C@H](O)[C@@H](C)/C=C(\C)[C@H](OC(N)=O)[C@@H](OC)/C=C\C=C(/C)C(=O)N2; system = unresectable or metastatic STS, GIST, other; setting = intravenous, 400 mg/m^2; measurement = patients with vomiting TEAE; value = 34%
Structure (SMILES) = COc1cc2c(Oc3ccc4[nH]c(C)cc4c3F)ccnc2cc1OCC1(N)CC1; system = paediatric recurrent refractory sarcoma; setting = 8 mg; measurement = grade 1 or 2 sinus arrhythmia; value = 0%
Structure (SMILES) = C[C@]1(O)C[C@@](N)(c2ccc(-c3nc4n(c3-c3ccccc3)COc3ccncc3-4)cc2)C1; system = human, advanced or metastatic solid tumours; setting = 24 mg intermittent, phase I dose escalation; measurement = patients with Fatigue TEAE; value = 50%
Structure (SMILES) = [Cl][212Pb][Cl]; system = athymic mice, C4-2 xenograft, skin; setting = intravenous, 2 h, 212Pb-labelled; measurement = tissue uptake; value = 0.62 %ID/g
Structure (SMILES) = C[C@@H](NC(=O)N1C(=O)[C@H](Cc2ccnc(N)c2)[C@H]1C(=O)O)C1CCCCC1; system = healthy adult Chinese volunteers; setting = continuous intravenous infusion, 0.3 mg/kg/h, 5-day infusion, CTCAE 5.0 grading; measurement = incidence of albuminuria; value = 0%
Structure (SMILES) = CC(C)Nc1ccnc(Nc2cccc(-c3cccnc3)c2)n1; assay = measured: sodium; system = mouse, blood; setting = intraperitoneal, 3 mg/kg; measurement = blood chemistry; value = 156 mmol/L
Structure (SMILES) = O=c1ccc2ncc(=O)n3c2n1C[C@H]3CN1CCC(NCc2cc3c(cn2)OCCC3)CC1; system = healthy human volunteers, urine; setting = oral, dose not given, with: rifampicin; scale = reference: compound alone; measurement = decrease in AUC(0-24); value = ~56%
Structure (SMILES) = CCCCCOc1ccc(-c2ccc(-c3ccc(C(=O)N[C@H]4C[C@@H](O)[C@@H](OCC[N+](C)(C)C)NC(=O)[C@@H]5[C@@H](O)[C@@H](C)CN5C(=O)[C@H]([C@@H](C)O)NC(=O)[C@H]([C@H](O)[C@@H](O)c5ccc(O)cc5)NC(=O)[C@@H]5C[C@@H](O)CN5C(=O)[C@H]([C@@H](C)O)NC4=O)cc3)cc2)cc1; system = adult ICU patients, mITT, serum; setting = dose not given, Follow-up; measurement = potassium; value = 4.1 mmol/L

Excerpt of the above:
Structure (SMILES) = C[C@]1(CO)Cc2ncn(-c3ccc(C#N)c(Cl)c3)c2C(=O)O1; system = human; setting = all doses, European multiple ascending dose; measurement = drug-related abnormal skin odour; value = 2.2%
Structure (SMILES) = CCCCCOc1ccc(-c2ccc(-c3ccc(C(=O)N[C@H]4C[C@@H](O)[C@@H](OCC[N+](C)(C)C)NC(=O)[C@@H]5[C@@H](O)[C@@H](C)CN5C(=O)[C@H]([C@@H](C)O)NC(=O)[C@H]([C@H](O)[C@@H](O)c5ccc(O)cc5)NC(=O)[C@@H]5C[C@@H](O)CN5C(=O)[C@H]([C@@H](C)O)NC4=O)cc3)cc2)cc1; system = adult ICU patients, mITT, serum; setting = dose not given, Follow-up; measurement = potassium; value = 4.1 mmol/L
